Measurements of several laboratories.
Several values in a cell are separate wells, animals, samples, runs or records. ± gives the spread as reported.

`CC(=O)NCC(=O)N[C@@H](Cc1ccccc1)C(=O)N[C@@H](Cc1ccccc1)C(=O)N[C@@H](Cc1ccc(O)cc1)C(=O)NCC(=O)N[C@@H](Cc1ccc(O)cc1)C(=O)NCC(=O)N[C@@H](CO)C(=O)N[C@@H](CO)C(=O)N[C@@H](CO)C(=O)N[C@@H](CCCNC(=N)N)C(=O)N[C@@H](CCCNC(=N)N)C(=O)N[C@@H](C)C(=O)N1CCC[C@H]1C(=O)N[C@@H](CCC(N)=O)C(=O)N[C@H](C(=O)O)[C@@H](C)O` — result for skin pigmentation: “increased” (male C57BL/6 mice depilated; topical, 300 µL once daily, 2 µM, day 14; relative to: control).
For `COC1OC(C)C(OC2OC(C)C(O)C(OC3OC(C)C(OC4OC(C)C(O)C(OC5OC(C)C(OC6OC(C)C(O)C(OC7OC(C)C(OC8OC(C)C(O)C(OC9OC(C)C(O)C(OS(=O)(=O)O)C9OS(=O)(=O)O)C8OS(=O)(=O)O)C(OS(=O)(=O)O)C7OS(=O)(=O)O)C6OS(=O)(=O)O)C(OS(=O)(=O)O)C5OS(=O)(=O)O)C4OS(=O)(=O)O)C(OS(=O)(=O)O)C3OS(=O)(=O)O)C2OS(=O)(=O)O)C(OS(=O)(=O)O)C1OS(=O)(=O)O` (stereo not shown), “activated partial thromboplastin time” read 68.7 s and 69.6 s and 70.5 s (human plasma; 32 µg/mL).
With `F[C@@H]1[C@H](c2ccc(-c3ccc(N4CCCC4)nc3)cc2)[C@H](F)[C@H](F)C[C@@H]1F` the hepatic clearance was 58 mL/min/kg (liver microsome stability; mouse liver microsomes; 1 µM).
For `COC(=O)C1CN1S(=O)(=O)c1ccc2cc(C)ccc2c1` (stereo not shown), the tumour volume was 623 mm3 (mouse, Lewis lung carcinoma; ip, 100 mg/kg, 312 h).
`Nc1ccc2c(c1)C(=O)N(C1CCC(=O)NC1=O)C2=O` (stereo not shown): “exchange rate constant” -0.0175 h⁻¹ (deuterium-hydrogen exchange; aqueous phosphate buffer; pH 7.4, 37 °C).
For `O=C([O-])CN1CCN(CC(=O)[O-])CCN(CC(=O)c2ccc(-c3ccc(OCC(=O)O)cc3)cc2)CCN(CC(=O)[O-])CC1.[Gd+3]`, “T1 relaxation time” read 558 ms (PBS; 0.3 mM, 25 °C, 7 T).
For `COc1ccc(-c2ccc(C3CCCCC3)cc2)cc1OC`, the hepatic clearance was 18 mL/min/kg (hepatocyte stability; cryopreserved rat hepatocytes; 1 µM).
`COc1cc(O)ccc1CCC(c1ccc(O)cc1)c1cc2c(c(C)c1O)OC(c1ccc(O)cc1)CC2` (mixture of isomers) has an amount of 23800 ± 2860 pg/mL blood (measured: docosahexaenoic acid; human whole blood; 3 µM, together with: Escherichia coli).
`COc1ccc(NC(=O)c2ccc3[nH]c(-c4ccc(N(C)C)cc4)nc3c2)cn1` gave a tumour volume of 212 mm3 and 117 mm3 and 226 mm3 and 172 mm3 and 141 mm3 (CT26, BALB/c mice, subcutaneous syngeneic graft; dose not given, day 7).
For `COC1OC(C)C(OC2OC(C)C(O)C(OC3OC(C)C(OC4OC(C)C(O)C(OC5OC(C)C(OC6OC(C)C(O)C(OC7OC(C)C(OC8OC(C)C(O)C(OS(=O)(=O)O)C8OS(=O)(=O)O)C(OS(=O)(=O)O)C7OS(=O)(=O)O)C6OS(=O)(=O)O)C(OS(=O)(=O)O)C5OS(=O)(=O)O)C4OS(=O)(=O)O)C(OS(=O)(=O)O)C3OS(=O)(=O)O)C2OS(=O)(=O)O)C(OS(=O)(=O)O)C1OS(=O)(=O)O` (stereo not shown), “activated partial thromboplastin time” read 52.1 s and 50.4 s and 52.4 s (human plasma; 8 µg/mL).
`COCC1CN(C2CCN(c3cc(OC)c(Nc4ncc(Br)c(Nc5ccc6c(c5P(C)(C)=O)OCCO6)n4)cc3C)CC2)C1`: “disease control rate” 33.3% (RECIST 1.1; advanced EGFR-mutant NSCLC patients; 150 mg once daily).
`COC1CN([C@H]2CC[C@H]([C@@]3(C)Oc4c(Cl)cc(C(=O)NCc5c(SC)cc(C)[nH]c5=O)c(C)c4O3)CC2)C1`: “log2 fold change” 2.6 (RNA-seq, measured: PKIB; human, whole blood; dose not given, 24 h; relative to: pretreatment baseline).
`COC1OC(C)C(OS(=O)(=O)O)C(OC2OC(C)C(OS(=O)(=O)O)C(OC3OC(C)C(OS(=O)(=O)O)C(OC4OC(C)C(OS(=O)(=O)O)C(OC5OC(C)C(OS(=O)(=O)O)C(OC6OC(C)C(OS(=O)(=O)O)C(OC7OC(C)C(OS(=O)(=O)O)C(OS(=O)(=O)O)C7OS(=O)(=O)O)C6OS(=O)(=O)O)C5OS(=O)(=O)O)C4OS(=O)(=O)O)C3OS(=O)(=O)O)C2OS(=O)(=O)O)C1OS(=O)(=O)O` (stereo not shown): “activated partial thromboplastin time” 150 s and 143 s and 148 s (human plasma; 64 µg/mL).

Repeated from above:
For `O=C([O-])CN1CCN(CC(=O)[O-])CCN(CC(=O)c2ccc(-c3ccc(OCC(=O)O)cc3)cc2)CCN(CC(=O)[O-])CC1.[Gd+3]`, “T1 relaxation time” read 558 ms (PBS; 0.3 mM, 25 °C, 7 T).
